Measured values pooled from the literature.
Lines come from different studies, so protocols differ. “And” joins repeats or separate records; there may be more than shown. Numbers after ± are the reported error.
Chain of UniProt P33261 (whole entry, looked up): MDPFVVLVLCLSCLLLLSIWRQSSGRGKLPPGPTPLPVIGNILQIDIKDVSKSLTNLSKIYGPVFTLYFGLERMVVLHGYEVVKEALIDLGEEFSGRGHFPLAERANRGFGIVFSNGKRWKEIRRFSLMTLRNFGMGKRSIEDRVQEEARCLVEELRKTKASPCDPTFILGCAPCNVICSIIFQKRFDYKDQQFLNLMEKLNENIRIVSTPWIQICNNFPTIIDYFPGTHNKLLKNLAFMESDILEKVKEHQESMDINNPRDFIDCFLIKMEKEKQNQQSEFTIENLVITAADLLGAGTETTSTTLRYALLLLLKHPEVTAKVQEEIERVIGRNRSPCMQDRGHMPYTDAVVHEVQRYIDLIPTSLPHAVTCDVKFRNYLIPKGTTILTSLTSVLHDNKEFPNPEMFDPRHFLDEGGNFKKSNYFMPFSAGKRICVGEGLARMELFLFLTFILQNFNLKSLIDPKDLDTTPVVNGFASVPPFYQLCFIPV

| Compound | tested on | test | test system | conditions | scale | endpoint | value |
| --- | --- | --- | --- | --- | --- | --- | --- |
| O=C1C2CC3CC1CC(C(=O)N1CCN(c4ccc([N+](=O)[O-])c5ncccc45)CC1)(C3)C2 | Salmonella typhimurium | Ames test | TA97a | 0.05 µg/well, without S9 activation | – | revertant colony count | 20 colonies/well |
| COc1cccc(OC)c1-c1cc(C(=O)NC2(C(=O)O)C3CC4CC(C3)CC2C4)nn1-c1ccc(C(=O)NCCNC(=O)[C@H](CCCCNC(=O)[C@H](CC(C)C)NC(=O)C2OC2C(=O)O)NC(=O)CN2CCN(CC(=O)[O-])CCN(CC(=O)[O-])CCN(CC(=O)[O-])CC2)cc1C(C)C.[177Lu+3] (mixture of isomers) | HT-29 tumour model | – | host not given, bone | 24 h, tumour-bearing | – | tracer uptake | 0.26 %ID/g |
| O=C1NC2(CC2)COc2ncc(F)cc2[C@H]2COCCN2c2ccn3ncc1c3n2 | CHL cells | chromosomal aberration test | – | 5 µg/mL, 24 h, without S9 mix | baseline: solvent control | relative population doubling | 59.1% |
| C=C(NC(=O)c1csc(-c2nc3c(cc2O)-c2nc(cs2)C(=O)NC(C(C)O)C(=O)NC(=C(C)OC)c2nc(cs2)C(=O)NC2c4nc(cs4)C(=O)NC(COC(=O)c4c5c6c(cccc6n4O)COC(=O)C(OC4CC(C)(O)C(N(C)C)C(C)O4)C2OC5)c2nc-3cs2)n1)C(N)=O (stereo not drawn) | – | – | ICR mice, Streptococcus pneumoniae ATCC 49169 infected, immunocompromised, blood | intravenous, 2 mg/kg/day once daily | – | Tmax | 4.8 min |
| N#C[C@@H]1CC(F)(F)CN1C(=O)CNC(=O)c1ccnc2c(NC(=O)[C@@H](N)CCCCNC(=O)CCOCCOCCOCCOCCOCCOCCNC(=O)CN3CCN(CC(=O)[O-])CCN(CC(=O)[O-])CCN(CC(=O)[O-])CC3)cccc12.[177Lu+3] | U-87 MG tumour model | – | host not given, blood | 4 h, tumour-bearing | – | tracer uptake | 0.21 %ID/g |
| N#C[C@@H]1CCCN1C(=O)CNC(=O)c1ccnc2ccc(OCCCN3CCN(C(=O)CCc4ccc5c(c4)CN4CCN(Cc6cc(CCC(=O)O)ccc6O)CC(=O)[O][Al-]([18F])([O]C(=O)C4)[O]5)CC3)cc12 (stereo partly drawn) | U-87 MG tumour model | – | host not given, stomach | 2 h, tumour-bearing | – | tracer uptake | 0.76 %ID/g |
| CNC(=O)C1CCCN(C(=O)C2CC3CCC2N3C(=O)[C@@H]2C[C@@H](O)CN2C(=O)NCc2cccc(Cl)c2F)C1 (mixture of isomers) | Cytochrome P450 2C19 (CYP2C19, Homo sapiens, UniProt P33261) | enzyme activity, inhibitor, time-dependent inhibition | – | 1.85 µM, preincubated without NADPH | baseline: negative control | remaining activity | 81.8% |
| N=C(N)NCCC[C@@H]1NC(=O)[C@H](CCCNC(=N)N)NC(=O)[C@@H](C(c2ccccc2)c2ccccc2)NC(=O)[C@H](Cc2c[nH]c3ccccc23)NC(=O)[C@@H](C(c2ccccc2)c2ccccc2)NC(=O)[C@@H](CCCNC(=N)N)NC(=O)[C@@H](CCCNC(=N)N)NC1=O | human liver cells | MTS | – | 100 µg/mL, 24 h | – | viability | > 90% |
| CCN(CC)CC#CCNc1ccnc2cc(Cl)ccc12 | Salmonella typhimurium | mini-Ames test | TA100 | 125.0 µg/well, with rat liver S9 | – | mean revertants | 24 revertants/well |
| Cc1cc(=O)c2c(O)c3c(O[C@@H]4O[C@H](CO)[C@@H](O)[C@H](O)[C@H]4O)cc(O)cc3cc2o1 | HK-2 co-cultured with HepaRG | MTT | – | 66.67 µM, 48 h | baseline: untreated control | cell viability | 84.2 ± 7.96% |
| CCCCCC[C@H](CSS(=O)(=O)O)NC1CCCCC1 | Schistosoma mansoni | perfusion day 57 | infected Swiss Webster mice | 100 mg/kg | – | body weight | 30.7 g and 29.5 g |
| CC(C)OCCOCc1ccc(OCC(O)CN(N=O)C(C)C)cc1 (stereo not drawn) | Salmonella typhimurium | Ames test | TA98 | 158 µg/plate, 30 % hamster S9 | baseline: solvent control | revertant fold increase | 1 fold |

Repeated from above:
| Compound | tested on | test | test system | conditions | scale | endpoint | value |
| --- | --- | --- | --- | --- | --- | --- | --- |
| N#C[C@@H]1CCCN1C(=O)CNC(=O)c1ccnc2ccc(OCCCN3CCN(C(=O)CCc4ccc5c(c4)CN4CCN(Cc6cc(CCC(=O)O)ccc6O)CC(=O)[O][Al-]([18F])([O]C(=O)C4)[O]5)CC3)cc12 (stereo partly drawn) | U-87 MG tumour model | – | host not given, stomach | 2 h, tumour-bearing | – | tracer uptake | 0.76 %ID/g |
| CC(C)OCCOCc1ccc(OCC(O)CN(N=O)C(C)C)cc1 (stereo not drawn) | Salmonella typhimurium | Ames test | TA98 | 158 µg/plate, 30 % hamster S9 | baseline: solvent control | revertant fold increase | 1 fold |
